Results gathered from unrelated publications.
Values joined by “and” are separate records of one study, mostly repeats; a detail may differ.

| SMILES | assay | test system | setting | AUC(0-last) |
| --- | --- | --- | --- | --- |
| CCc1cc(C(=O)NC)c2nccc(N3CCc4c(cc(Cn5ccnc5)cc4-c4cn(C)nc4C(F)(F)F)C3=O)c2c1 |  | Sprague Dawley rat, male, plasma | oral, 100 mg/kg twice daily, 7 days | 126000 ng·h/mL |
| CC(C)c1nc(N(C)S(C)(=O)=O)nc(-c2ccc(F)cc2)c1/C=C/[C@@H](O)C[C@@H](O)CC(=O)O |  | healthy volunteers, plasma | oral, 10 mg, day 8, BCRP probe, added: momelotinib, days 4-8, 200 mg, once daily | 101 ng·h/mL |
| CC[C@H](C)CCCCC(=O)N[C@@H](CCN)C(=O)N[C@H](C(=O)N[C@@H](CCN)C(=O)N[C@H]1CCNC(=O)[C@H]([C@@H](C)O)NC(=O)[C@H](CCN)NC(=O)[C@H](CCN)NC(=O)[C@H](CC(C)C)NC(=O)[C@@H](Cc2ccccc2)NC(=O)[C@H](CCN)NC1=O)[C@@H](C)O |  | ESKD on long-term intermittent haemodialysis, plasma | intravenous infusion, 0.75 mg/kg single dose over 1 h, arithmetic mean | 31300 ng·h/mL |
| NC1(C(=O)N[C@@H](CCO)c2ccc(Cl)cc2)CCN(c2nc[nH]c3nccc2-3)CC1 |  | human, plasma | oral, 400 mg single dose | 3550 ng·h/mL and 8490 ng·h/mL and 6840 ng·h/mL and 5980 ng·h/mL and 2890 ng·h/mL and 4540 ng·h/mL |
| C[C@H]1CN(C(=O)CC#N)[C@]12CCN(c1ncnc3[nH]ccc13)C2 |  | healthy Japanese males, plasma | oral, 50 mg single dose | 1800 ng·h/mL |
| CCn1cc(C(=O)N2CCOCC2)c(=O)c2cc(NC3Cc4ccccc4C3)cnc21 |  | human, fasted | oral suspension, 5 mg single dose, arithmetic mean | 178 ng·h/mL |
| CCCCCCCCc1ccc(CCC(N)(CO)CO)cc1 |  | Sprague-Dawley rat, heart | oral, 1 mg/kg, single dose | 11400 ng·h/g |
| CC(=O)N[C@H]1CC[C@H](NC(=O)CN2CCN(c3nncc(-c4ccc(C)cc4)n3)CC2)CC1 |  | women, plasma | oral, 100 mg single dose, study | 6350 ng·h/mL |
| C[C@@]1(c2cc(NC(=O)c3ccc(C#N)cn3)ccc2F)C=CSC(N)=N1 |  | young men, plasma | oral, 1 mg single dose | 61.6 ng·h/mL |
| COc1ncc(-c2nc3c(n2C(C)C)[C@H](c2ccc(Cl)cc2)N(c2cc(Cl)cn(C)c2=O)C3=O)c(OC)n1 | LC-MS/MS, noncompartmental | human, plasma | oral, 150 mg, cycle 1 day 1, high-dose, geometric mean | 23700 ng·h/mL |
| COc1cccc(-c2n[nH]c(SCc3ccccn3)n2)c1OC |  | Sprague-Dawley rat, female, plasma | oral gavage, 10 mg/kg | 14200 ng·h/mL |
| CCCCCCCOc1ccc(CCC(N)(CO)CO)cc1C(F)(F)F.Cl |  | male Sprague-Dawley rat, plasma | oral, 1 mg/kg, single dose | 23.9 ng·h/mL |
| CC(C)c1nc(N(C)S(C)(=O)=O)nc(-c2ccc(F)cc2)c1/C=C/[C@@H](O)C[C@@H](O)CC(=O)O |  | Wistar albino rat, both sexes, plasma | oral, 20 mg/kg | 10600 ng·h/mL and 15400 ng·h/mL and 6080 ng·h/mL |

A few entries again:
| SMILES | assay | test system | setting | AUC(0-last) |
| --- | --- | --- | --- | --- |
| CC[C@H](C)CCCCC(=O)N[C@@H](CCN)C(=O)N[C@H](C(=O)N[C@@H](CCN)C(=O)N[C@H]1CCNC(=O)[C@H]([C@@H](C)O)NC(=O)[C@H](CCN)NC(=O)[C@H](CCN)NC(=O)[C@H](CC(C)C)NC(=O)[C@@H](Cc2ccccc2)NC(=O)[C@H](CCN)NC1=O)[C@@H](C)O |  | ESKD on long-term intermittent haemodialysis, plasma | intravenous infusion, 0.75 mg/kg single dose over 1 h, arithmetic mean | 31300 ng·h/mL |
